Results collected from several papers.
Protocols differ between the studies behind these lines. ± marks the error that the study gave.
PLK1 polo-box: Serine/threonine-protein kinase PLK1, polo-box (PLK1, Homo sapiens, UniProt P53350)
Sequence of UniProt P53350 (whole entry, looked up): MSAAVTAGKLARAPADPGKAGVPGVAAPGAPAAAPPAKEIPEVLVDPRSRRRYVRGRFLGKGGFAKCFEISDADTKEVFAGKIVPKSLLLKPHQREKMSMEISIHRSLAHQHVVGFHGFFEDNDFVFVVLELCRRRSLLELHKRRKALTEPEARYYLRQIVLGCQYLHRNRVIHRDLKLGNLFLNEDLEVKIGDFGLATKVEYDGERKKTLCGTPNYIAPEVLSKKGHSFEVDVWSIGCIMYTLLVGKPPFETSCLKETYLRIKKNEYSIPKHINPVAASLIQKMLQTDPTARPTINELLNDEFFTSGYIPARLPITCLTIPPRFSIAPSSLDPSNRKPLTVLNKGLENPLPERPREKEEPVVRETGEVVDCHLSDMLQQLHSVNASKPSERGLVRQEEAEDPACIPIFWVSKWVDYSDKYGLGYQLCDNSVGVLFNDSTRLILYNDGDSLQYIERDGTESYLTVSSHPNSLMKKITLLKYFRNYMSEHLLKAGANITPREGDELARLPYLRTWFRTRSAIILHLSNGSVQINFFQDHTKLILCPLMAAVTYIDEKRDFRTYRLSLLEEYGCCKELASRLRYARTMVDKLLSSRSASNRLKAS
PLK1: Serine/threonine-protein kinase PLK1 (PLK1, Homo sapiens, UniProt P53350)
PLK1 polo-box domain: Serine/threonine-protein kinase PLK1, polo-box domain (PLK1, Homo sapiens, UniProt P53350)

CC(=O)N[C@@H](Cc1c[nH]c2ccccc12)C(=O)N[C@@H](C)C(=O)N1CCC[C@H]1C(=O)N1CCC[C@H]1C(=O)N[C@@H](CC(C)C)C(=O)N[C@@H](Cc1c[nH]cn1)C(=O)N[C@@H](CO)C(=O)N[C@H](C(=O)N[C@@H](C)C(N)=O)[C@@H](C)OP(=O)(O)O
Kd (PLK1 polo-box; binding, MST): 29.6 nM

CC[C@@H]1C(=O)N(C)c2cnc(Oc3ccc(C(=O)NCCCC[C@H](NC(=O)COCCOCCNC(=O)COCCOCCNC(=O)COCCOCCNC(=O)COCCOCCNC(=O)[C@@H](NC(=O)[C@H](CO)NC(=O)[C@H](Cc4cncn4CCCCCCCCc4ccccc4)NC(=O)[C@H](CC(C)C)NC(=O)[C@@H]4CCCN4C(C)=O)[C@@H](C)OP(=O)(O)O)C(N)=O)cc3OC)nc2N1CC(C)C
IC50 (PLK1; enzyme activity, inhibitor, FRET): > 10000 nM

CC(=O)N(CCCCCCc1ccccc1)CC(=O)N[C@@H](CC(C)C)C(=O)N[C@@H](Cc1c[nH]cn1)C(=O)N[C@@H](C)C(=O)N[C@H](C(N)=O)[C@@H](C)CP(=O)(O)O
IC50 (PLK1 polo-box; ligand displacement, FP): 34000 nM

CC(C)C[C@@H]1NC(=O)CCCCCCCCCCCCCC[n+]2cc(n(CCCCCCCCc3ccccc3)c2)C[C@@H](C(=O)N[C@@H](CO)C(=O)N[C@H](C(N)=O)[C@@H](C)OP(=O)([O-])O)NC1=O
IC50 (PLK1 polo-box domain): 13000 nM

CC(=O)N(CCCCCCc1ccccc1)CC(=O)N[C@@H](CC(C)C)C(=O)N[C@@H](Cc1c[nH]cn1)C(=O)N[C@@H](CO)C(=O)N[C@H](C(N)=O)[C@@H](C)CP(=O)(O)O
IC50 (PLK1 polo-box; ligand displacement, FP): 71 nM

CC[C@@H]1C(=O)N(C)c2cnc(Nc3ccc(C(=O)NCCCC[C@H](NC(C)=O)C(=O)NCCOCCOCC(=O)NCCOCCOCC(=O)NCCOCCOCC(=O)N4CCC[C@H]4C(=O)N[C@@H](CC(C)C)C(=O)N[C@@H](Cc4cncn4CCCCCCCCc4ccccc4)C(=O)N[C@@H](CO)C(=O)N[C@H](C(N)=O)[C@@H](C)OP(=O)(O)O)cc3OC)nc2N1C1CCCC1
IC50 (PLK1; enzyme activity, inhibitor): 1.3 ± 0.13 nM

CC(=O)N1CCC[C@H]1C(=O)N[C@@H](CC(C)C)C(=O)N[C@H]1C[C@H](CCCCCCCCc2ccccc2)C(=O)NCCCC[C@@H](C(N)=O)NC(=O)[C@H]([C@@H](C)OP(=O)(O)O)NC(=O)[C@H](CO)NC1=O
IC50 (PLK1 polo-box domain; enzyme activity, inhibitor): 5 ± 0.4 nM

CC[C@@H]1C(=O)N(C)c2cnc(Oc3ccc(C(=O)NCCCC[C@H](NC(=O)COCCOCCNC(=O)COCCOCCNC(=O)COCCOCCNC(=O)COCCOCCNC(=O)[C@@H](NC(=O)[C@H](CO)NC(=O)[C@H](Cc4cncn4CCCCCCCCc4ccccc4)NC(=O)[C@H](CC(C)C)NC(=O)[C@@H]4CCCN4C(C)=O)[C@@H](C)OP(=O)(O)O)C(N)=O)cc3OC)nc2N1C1CCCC1
IC50 (PLK1; enzyme activity, inhibitor, FRET): 710 nM

CSCC[C@H](NC(=O)[C@@H]1CCCN1C(=O)CNC(=O)[C@H](C)NC(=O)[C@@H](N)CCSC)C(=O)N[C@@H](CCC(N)=O)C(=O)N[C@@H](CO)C(=O)N[C@H](C(=O)N1CCC[C@H]1C(=O)N[C@@H](CC(C)C)C(=O)N[C@@H](CC(N)=O)C(=O)NCC(=O)N[C@@H](C)C(=O)N[C@@H](CCCCN)C(=O)N[C@@H](CCCCN)C(=O)O)[C@@H](C)OP(=O)(O)O
IC50 (PLK1 polo-box domain; inhibitor): 850 nM

CC(=O)N[C@@H](Cc1c[nH]cn1)C(=O)N[C@@H](C)C(=O)N1CCC[C@H]1C(=O)N1CCC[C@H]1C(=O)N[C@@H](CC(C)C)C(=O)N[C@@H](Cc1c[nH]cn1)C(=O)N[C@@H](CO)C(=O)N[C@H](C(=O)N[C@@H](C)C(N)=O)[C@@H](C)OP(=O)(O)O
Kd (PLK1 polo-box; binding, MST): 33.3 nM

Some of these lines once more:
CC(=O)N[C@@H](Cc1c[nH]cn1)C(=O)N[C@@H](C)C(=O)N1CCC[C@H]1C(=O)N1CCC[C@H]1C(=O)N[C@@H](CC(C)C)C(=O)N[C@@H](Cc1c[nH]cn1)C(=O)N[C@@H](CO)C(=O)N[C@H](C(=O)N[C@@H](C)C(N)=O)[C@@H](C)OP(=O)(O)O
Kd (PLK1 polo-box; binding, MST): 33.3 nM
